# Assay results collected from several papers.
# Parts stem from different laboratories: compare values within a part only. Positions count from the first letter of the parent shown.

# Study 1 — method: DHFR PCA, deep sequencing; medium: yeast; with: (+)-ABA 2500 µM; reference: wild-type fitted maximum; direction: higher = stronger binding
# Target: ABI1, truncated, D143A, DHFR fusion (Arabidopsis thaliana)
# Notes: methotrexate growth selection, single substitutions
# Starting sequence: PYL1, truncated, DHFR fusion (Arabidopsis thaliana); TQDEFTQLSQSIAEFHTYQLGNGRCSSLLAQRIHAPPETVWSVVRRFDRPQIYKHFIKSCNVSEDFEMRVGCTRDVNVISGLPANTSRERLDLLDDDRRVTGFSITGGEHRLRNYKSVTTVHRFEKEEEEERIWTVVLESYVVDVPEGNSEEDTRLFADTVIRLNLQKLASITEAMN; partner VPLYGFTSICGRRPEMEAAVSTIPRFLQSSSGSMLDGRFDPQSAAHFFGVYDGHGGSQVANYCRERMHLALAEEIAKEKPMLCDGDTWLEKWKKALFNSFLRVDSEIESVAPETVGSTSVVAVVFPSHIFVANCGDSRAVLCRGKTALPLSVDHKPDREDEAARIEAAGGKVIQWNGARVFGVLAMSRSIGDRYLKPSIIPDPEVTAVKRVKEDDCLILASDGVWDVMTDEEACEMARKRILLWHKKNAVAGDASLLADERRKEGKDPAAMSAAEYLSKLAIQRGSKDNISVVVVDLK
Change,relative binding score [%]
D65V,93.8
V44F,36.6
F103Q,14
R163Y,64.4
V40K,0.529
V161K,8.75
V62Y,89.4
G21A,98.3
R155P,20.4
L8Y,89.4
G108H,63.9
A175D,95.9
L82F,79.9
L28K,98.5
E125C,101
T86K,94.2
G21I,99.2

# Study 2 — method: protein-binding microarray; molecule type: double-stranded DNA, one strand shown; medium: in vitro; concentration: 2540 nM top; notes: 60-bp whole probe; with: salmon DNA 0.4 mg/ml; reference: random background probes; direction: higher = stronger binding; all sequences stand within: GCCTAGCAC … GTCTTGATTCGCTTGACGCTGCTG
# Target: Interferon regulatory factor 3, full length, phosphomimetic (IRF3, Homo sapiens, UniProt Q14653, residues 1-427, S386D/S396D/S398D/S402D/T404D/S405D)
# Target sequence (chain): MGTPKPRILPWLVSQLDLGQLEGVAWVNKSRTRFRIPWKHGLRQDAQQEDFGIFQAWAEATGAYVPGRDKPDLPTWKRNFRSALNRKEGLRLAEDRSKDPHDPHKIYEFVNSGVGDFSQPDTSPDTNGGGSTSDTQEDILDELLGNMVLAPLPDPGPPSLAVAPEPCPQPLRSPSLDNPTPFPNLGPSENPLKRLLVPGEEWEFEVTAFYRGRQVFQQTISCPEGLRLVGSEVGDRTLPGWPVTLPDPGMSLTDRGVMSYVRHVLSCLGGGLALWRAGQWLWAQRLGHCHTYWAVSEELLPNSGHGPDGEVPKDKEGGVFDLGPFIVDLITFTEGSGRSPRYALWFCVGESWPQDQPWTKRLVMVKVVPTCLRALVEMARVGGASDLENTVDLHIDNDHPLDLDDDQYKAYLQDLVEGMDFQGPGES
Oligonucleotide,fitted relative affinity [z-score]
TATAATATATATTCATATATGTGCTAG,0.72
GATGGACTGGACTTTCGGGACGTGCTA,-0.0774
GACGGCATCCTTTTCCTGACGTGCTAG,1.32
TTAGGTATCGGTATCGGTTAGTGCTAG,5.32
TTAGGTCTCGGTATCCGTTAGTGCTAG,2.14
TTAGGTATCCGGTTTCGGTTAGTGCTA,4.8
GAGTCTTCCCTTTTAAGTTCGTGCTAG,2.79
TTAGGTCTCGGTTTGGGTTAGTGCTAG,0.964
GTAGGTTTCGACTTTCGGTTAGTGCTA,4.01
GACGAACTGAGTCTCGGGACGTGCTAG,-0.287
TTAGGTCTAGGACTGGGTTAGTGCTAG,-0.823
GTAGGCTTCTATGTAGTTGAGTGCTAG,-0.748
AACAGGAGCAGATGGGAAGTGTGCTAG,-0.272
GACGATTACGGGTATCGAGACGTGCTA,-0.0295
TTAGGTCTTCTTCTCCTTTAGTGCTAG,0.864
TCAGTAAGCAAAAATGAACTGTGCTAG,-0.436

# Study 3 — method: RNA Bind-n-Seq; molecule type: RNA; medium: in vitro; concentration: 1 µM; notes: whole 134-nt RNA, ends assumed; with: 150 mM KCl; reference: input library; direction: higher = stronger binding
# Target: Ras GTPase-activating protein-binding protein 1, RRM domain (G3BP1, Homo sapiens, UniProt Q13283)
# Chain of UniProt Q13283 (whole entry, looked up): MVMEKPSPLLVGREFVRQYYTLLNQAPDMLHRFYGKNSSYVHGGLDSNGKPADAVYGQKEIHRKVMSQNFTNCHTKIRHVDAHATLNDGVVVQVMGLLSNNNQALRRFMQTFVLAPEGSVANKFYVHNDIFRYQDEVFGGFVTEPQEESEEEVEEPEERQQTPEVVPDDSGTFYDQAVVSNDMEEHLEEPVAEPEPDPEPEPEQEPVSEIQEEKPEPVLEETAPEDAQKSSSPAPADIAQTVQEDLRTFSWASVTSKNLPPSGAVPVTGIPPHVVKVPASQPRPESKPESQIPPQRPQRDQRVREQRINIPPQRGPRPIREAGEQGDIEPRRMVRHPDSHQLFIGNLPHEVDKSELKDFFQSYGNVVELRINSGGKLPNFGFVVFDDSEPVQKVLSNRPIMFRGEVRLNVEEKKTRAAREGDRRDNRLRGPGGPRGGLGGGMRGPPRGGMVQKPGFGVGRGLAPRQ
Oligonucleotide,log2 enrichment
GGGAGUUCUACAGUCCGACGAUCUUCCGCUGUCUUUUCUGUCUACAGUUUGCGAUCCCCGCGUCCAGGAUGGAGCAGCUGAACGAACUGGAGCUGCUGAUGGAGAAGAGUUUUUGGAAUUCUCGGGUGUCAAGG,-0.206
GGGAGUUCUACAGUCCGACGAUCCUCAAGUCCUGUGCUACACAUCGUAUGUACCGAAUCGGUUUUUUUGGUGGUGGAAAGUAUUAUGUUACGCCGUUCGGAUCUGCACUUCCAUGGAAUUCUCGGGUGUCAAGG,-0.291
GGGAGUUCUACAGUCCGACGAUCGCAGGAAGUAAAAACAAAUGGAAAUGCUUCGGAUAGUGGCAGGAGUGGGGGUUGCUAAGGAAAGGGUGGGAUGGGAGUGGGUAAAGAGUUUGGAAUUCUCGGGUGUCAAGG,0.911
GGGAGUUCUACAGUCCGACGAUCCACAGACAACACGCACCCACACAGACACAGUGGGAAGGGGUUGGGAUGGGGACAGGGUGCACAGCAGGGCGGGGUAGGACCCCAGCCCCUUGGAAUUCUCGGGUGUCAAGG,0.644
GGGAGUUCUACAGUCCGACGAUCCAAGUCCUGUGCUACACAUCGUAUGUACCGAAUCGGGGCCGGGGCCGGGCCGGGGAAAGUAUUAUGUUACGCCGUUCGGAUCUGCACUUCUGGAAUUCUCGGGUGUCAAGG,-1.11
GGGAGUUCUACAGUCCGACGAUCCUGUGCUACACAUCGUAUGUACCGAAUCGGGGUUUUUUUGGGGUUUUUUUGGGGUUUGGGGAAAGUAUUAUGUUACGCCGUUCGGAUCUGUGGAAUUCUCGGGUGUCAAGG,0.402
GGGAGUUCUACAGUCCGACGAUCUCAAGUCCUGUGCUACACAUCGUAUGUACCGAAUCGGGGAAGGAAGGGGAAGGGAAAGUAUUAUGUUACGCCGUUCGGAUCUGCACUUCCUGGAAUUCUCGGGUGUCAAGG,0.532
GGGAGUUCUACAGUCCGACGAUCUUUUUCCAGAGCUCACAACGACCUGGGGCUGAGGACAAUGUCCUCAAUGAGAUCGUGAGUAUCUUGCAGCCCACCCAGGUCCCUGAGCAGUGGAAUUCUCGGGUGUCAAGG,-0.204
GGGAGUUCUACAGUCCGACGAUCUGUGCUACACAUCGUAUGUACCGAAUCGGCCCCCCCGGGGCCCCCCCGGGGCCCCCCCGGGGAAAGUAUUAUGUUACGCCGUUCGGAUCUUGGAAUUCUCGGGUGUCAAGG,-0.64
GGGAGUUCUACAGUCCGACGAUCCACAGACAACACGCACCCACACAGACACAGAGGGAAGGGGUUGGGAUGGAAACAGGGUGCACAGCAGGGCGGGGUAGGACCCCAGCCCCUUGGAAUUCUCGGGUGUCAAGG,-0.124
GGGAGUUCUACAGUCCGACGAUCUCCUGUGCUACACAUCGUAUGUACCGAAUCAAACCCAAAUUUUUUUAAACCCCCCCAAAAAAGUAUUAUGUUACGCCGUUCGGAUCUGCAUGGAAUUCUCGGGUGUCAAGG,-0.564
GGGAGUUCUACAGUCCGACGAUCACCAUGCAGGUGGGCAUCUUUGGGAAGUGGGGCAAGGGGGGGAUAGGGAGGGGGGUAACACUUUGGGAACAGGUGUUCCCAGGUCGUUUCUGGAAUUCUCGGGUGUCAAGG,0.587
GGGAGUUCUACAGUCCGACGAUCUCAAGUCCUGUGCUACACAUCGUAUGUACCGAAUCGGGAAGGGGAAGGGAAGGGAAAGUAUUAUGUUACGCCGUUCGGAUCUGCACUUCCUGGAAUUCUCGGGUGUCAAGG,1.12
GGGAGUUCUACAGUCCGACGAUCACCAUGCAGGUGGGCAUCUUUGGGAAGUGGGGCAAGGGGGGGAUAGGGAGGGGGGUAACACUUUGGGAACAGGUGAUCCCAGGUCGUUUCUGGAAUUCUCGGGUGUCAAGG,0.701

# Study 4 — target: CCNA2, cyclin fold, Cln2 fusion (human); method: yeast growth competition, sequencing; medium: yeast; notes: strong parent motif; reference: not given; direction: higher = stronger binding
# Starting sequence: E2F1 docking peptide (human); PPVKRRLDLETDH; partner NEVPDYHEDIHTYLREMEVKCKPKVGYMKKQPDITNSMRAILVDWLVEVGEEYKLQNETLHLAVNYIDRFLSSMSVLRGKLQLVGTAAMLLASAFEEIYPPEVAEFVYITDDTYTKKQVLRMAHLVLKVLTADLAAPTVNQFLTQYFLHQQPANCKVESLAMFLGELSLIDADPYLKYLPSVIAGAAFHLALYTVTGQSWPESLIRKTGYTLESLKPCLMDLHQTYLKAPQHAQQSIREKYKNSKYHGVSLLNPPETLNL
Change,normalised enrichment score
PPVKRRLDLETDV [H13V],4.77
PPVKRRLDLEQDH [T11Q],4.28
PPVKWRLDLETDH [R5W],0.519
PPVTRRLDLETDH [K4T],-0.491
PPVKRKLDLETDH [R6K],2.88
YPVKRRLDLETDH [P1Y],5.35
PPVKRRLDLECDH [T11C],4.19
PPVKRRLDLEDDH [T11D],3.58
LPVKRRLDLETDH [P1L],5.97
PGVKRRLDLETDH [P2G],4.43
PPKKRRLDLETDH [V3K],0.694
PPVKRRLDLITDH [E10I],2.71
PPVKRRLDLENDH [T11N],3.81

# Study 5 — method: aptamer microarray, sandwich; molecule type: DNA with 2'F-ANA; medium: in vitro; concentration: 200 nM; with: Cy3 exosite-II aptamer, 400 nM; direction: higher = stronger binding; oligonucleotide: GGTTGGTGTGGTTGG
# Target: Prothrombin, mature alpha-thrombin (F2, Homo sapiens, UniProt P00734)
# Notes: whole 15-mer aptamer, many near background
Modification,mean fluorescence intensity [a.u.]
2'F-ANA at 1 2 5 7 10 12 13,49.2
2'F-ANA at 1 3 5 10 12 14 15,45.9
2'F-ANA at 2 3 6 7 8 10 12 14,296
2'F-ANA at 1 4 9 10 12 14,45
2'F-ANA at 1 4 5 9 10 12 14 15,44.7
2'F-ANA at 3 7 11 13,1110
2'F-ANA at 1 6 11 15,139
2'F-ANA at 1 3 4 5 9 11,52.3
2'F-ANA at 2 4 5 7 14,47.3
2'F-ANA at 2 4 8 10 12 14,90.8
2'F-ANA at 1 3 5 6 7 11 12 13,76.7
2'F-ANA at 5 8 9 14,46.6
2'F-ANA at 1 2 3 4 6 7 8 14 15,73
2'F-ANA at 1 2 3 5 7 8 10,47.2
2'F-ANA at 3 5 9 10 11 13 14 15,50.3
2'F-ANA at 3 4 7 8 13 14,391
2'F-ANA at 1 2 4 6 7 8 9 11 12 14,59.4

# Repeated from above (study 5):
Modification,mean fluorescence intensity [a.u.]
2'F-ANA at 1 3 5 10 12 14 15,45.9
2'F-ANA at 2 3 6 7 8 10 12 14,296
2'F-ANA at 1 4 9 10 12 14,45
2'F-ANA at 1 4 5 9 10 12 14 15,44.7
